{"data": "Assay results gathered from unrelated publications", "note": "Every numbered part comes from another study and shows a few of its results, in no order. Several values in a cell are separate wells, animals, samples, runs or records.", "UniProt P46934, sequence (whole entry, looked up)": "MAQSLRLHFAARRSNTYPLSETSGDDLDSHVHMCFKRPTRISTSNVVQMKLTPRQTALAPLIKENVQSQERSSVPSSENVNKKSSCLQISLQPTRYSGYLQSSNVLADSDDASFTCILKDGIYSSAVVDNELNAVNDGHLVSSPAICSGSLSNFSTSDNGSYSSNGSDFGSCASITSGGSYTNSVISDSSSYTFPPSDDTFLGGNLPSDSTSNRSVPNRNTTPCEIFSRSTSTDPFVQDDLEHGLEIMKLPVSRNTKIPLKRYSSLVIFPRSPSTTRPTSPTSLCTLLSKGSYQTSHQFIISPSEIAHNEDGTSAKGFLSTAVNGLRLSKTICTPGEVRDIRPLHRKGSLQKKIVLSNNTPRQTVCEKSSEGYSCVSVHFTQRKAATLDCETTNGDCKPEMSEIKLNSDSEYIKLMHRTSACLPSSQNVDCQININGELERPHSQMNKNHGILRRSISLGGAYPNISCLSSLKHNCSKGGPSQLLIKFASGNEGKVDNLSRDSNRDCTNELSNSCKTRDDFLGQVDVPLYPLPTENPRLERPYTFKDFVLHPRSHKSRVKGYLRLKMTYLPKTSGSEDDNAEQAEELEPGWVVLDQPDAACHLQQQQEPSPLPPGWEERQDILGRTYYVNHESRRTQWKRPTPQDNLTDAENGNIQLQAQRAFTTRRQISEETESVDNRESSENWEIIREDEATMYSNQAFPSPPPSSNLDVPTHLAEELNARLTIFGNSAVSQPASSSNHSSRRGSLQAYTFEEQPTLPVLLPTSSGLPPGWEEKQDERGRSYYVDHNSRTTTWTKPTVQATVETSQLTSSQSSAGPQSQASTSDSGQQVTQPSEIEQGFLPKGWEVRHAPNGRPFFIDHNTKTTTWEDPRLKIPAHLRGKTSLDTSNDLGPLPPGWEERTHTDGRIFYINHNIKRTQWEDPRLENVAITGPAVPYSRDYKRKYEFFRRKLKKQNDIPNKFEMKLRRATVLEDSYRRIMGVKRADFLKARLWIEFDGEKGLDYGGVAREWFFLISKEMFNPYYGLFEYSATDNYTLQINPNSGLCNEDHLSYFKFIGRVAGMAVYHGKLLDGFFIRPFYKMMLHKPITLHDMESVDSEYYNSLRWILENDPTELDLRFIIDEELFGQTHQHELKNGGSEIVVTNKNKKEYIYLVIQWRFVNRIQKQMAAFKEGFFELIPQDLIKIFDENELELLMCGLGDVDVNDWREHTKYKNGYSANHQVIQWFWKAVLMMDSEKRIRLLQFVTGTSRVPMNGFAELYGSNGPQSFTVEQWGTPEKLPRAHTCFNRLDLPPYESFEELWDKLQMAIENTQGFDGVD"}
{"data": "Sample 1", "Compound": "C[C@@H]1CN(c2ccc(-c3cc(C(=O)NCCOCCOCCOCCOCCNC(=O)/C=C/c4[nH]cc(C(=O)N[C@@H](CC(N)=O)c5ccc(F)c(Cl)c5)c4-c4ccc(Cl)cc4F)ccc3F)cc2NC(=O)c2c[nH]c(=O)cc2C(F)(F)F)C[C@H](C)N1C", "observed": "thermal unfolding", "method": "differential scanning fluorimetry", "concentration": "5.5 µM", "reading": "higher = more unfolded", "WDR5": "WD repeat-containing protein 5 (WDR5, Homo sapiens, UniProt P61964)", "DCAF1": "DDB1- and CUL4-associated factor 1 (DCAF1, Homo sapiens, UniProt Q9Y4B6)", "UniProt Q9Y4B6, sequence (whole entry, looked up)": "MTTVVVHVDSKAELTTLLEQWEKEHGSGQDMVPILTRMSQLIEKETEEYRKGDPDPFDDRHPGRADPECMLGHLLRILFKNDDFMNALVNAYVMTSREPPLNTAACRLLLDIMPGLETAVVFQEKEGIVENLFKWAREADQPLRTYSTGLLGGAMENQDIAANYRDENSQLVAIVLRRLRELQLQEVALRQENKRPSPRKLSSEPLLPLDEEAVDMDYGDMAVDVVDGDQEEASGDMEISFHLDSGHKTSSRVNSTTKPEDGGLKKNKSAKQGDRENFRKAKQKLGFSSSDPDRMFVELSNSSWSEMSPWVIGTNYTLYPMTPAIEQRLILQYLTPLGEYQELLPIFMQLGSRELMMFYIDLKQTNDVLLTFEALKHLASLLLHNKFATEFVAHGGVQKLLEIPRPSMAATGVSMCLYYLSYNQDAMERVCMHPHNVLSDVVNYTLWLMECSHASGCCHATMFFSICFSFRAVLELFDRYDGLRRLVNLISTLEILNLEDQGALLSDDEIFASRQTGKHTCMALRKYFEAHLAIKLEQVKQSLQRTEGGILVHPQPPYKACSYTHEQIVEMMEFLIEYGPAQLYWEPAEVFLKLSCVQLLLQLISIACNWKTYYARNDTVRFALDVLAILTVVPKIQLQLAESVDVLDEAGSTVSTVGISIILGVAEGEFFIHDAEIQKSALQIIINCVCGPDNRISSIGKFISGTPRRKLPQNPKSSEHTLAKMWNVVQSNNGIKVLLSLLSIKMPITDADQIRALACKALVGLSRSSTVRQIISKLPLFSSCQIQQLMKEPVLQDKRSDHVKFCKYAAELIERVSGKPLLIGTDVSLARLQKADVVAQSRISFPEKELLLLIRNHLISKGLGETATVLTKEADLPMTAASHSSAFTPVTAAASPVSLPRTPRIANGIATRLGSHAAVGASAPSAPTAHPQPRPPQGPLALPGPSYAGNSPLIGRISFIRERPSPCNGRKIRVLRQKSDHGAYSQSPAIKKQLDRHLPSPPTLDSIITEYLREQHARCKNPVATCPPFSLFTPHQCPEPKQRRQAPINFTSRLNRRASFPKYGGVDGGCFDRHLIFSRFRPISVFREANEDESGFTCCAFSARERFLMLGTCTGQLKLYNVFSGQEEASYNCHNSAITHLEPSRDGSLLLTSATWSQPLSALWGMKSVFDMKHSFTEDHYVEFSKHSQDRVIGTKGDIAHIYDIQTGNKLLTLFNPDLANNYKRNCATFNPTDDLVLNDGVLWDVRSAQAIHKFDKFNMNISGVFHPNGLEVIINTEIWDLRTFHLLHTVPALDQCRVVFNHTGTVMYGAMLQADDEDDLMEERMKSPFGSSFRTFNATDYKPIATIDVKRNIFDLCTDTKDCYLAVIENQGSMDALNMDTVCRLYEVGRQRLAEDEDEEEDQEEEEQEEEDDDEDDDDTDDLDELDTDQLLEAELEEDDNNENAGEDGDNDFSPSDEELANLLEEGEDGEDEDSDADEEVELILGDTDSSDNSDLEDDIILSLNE"}
{"target": "WDR5", "temperature": "79.61 °C", "SYPRO Orange fluorescence [a.u.]": 39300}
{"target": "DCAF1", "temperature": "90.01 °C", "SYPRO Orange fluorescence [a.u.]": 35000}
{"target": "DCAF1", "temperature": "64.21 °C", "SYPRO Orange fluorescence [a.u.]": 57300}
{"target": "WDR5", "temperature": "25 °C", "SYPRO Orange fluorescence [a.u.]": 12800}
{"target": "DCAF1", "temperature": "61.81 °C", "SYPRO Orange fluorescence [a.u.]": 49200}
{"target": "DCAF1", "temperature": "76.61 °C", "SYPRO Orange fluorescence [a.u.]": 48300}
{"target": "DCAF1", "temperature": "33 °C", "SYPRO Orange fluorescence [a.u.]": 9790}
{"target": "DCAF1", "temperature": "59.61 °C", "SYPRO Orange fluorescence [a.u.]": 38800}
{"target": "WDR5", "temperature": "63.01 °C", "SYPRO Orange fluorescence [a.u.]": 14300}
{"target": "DCAF1", "temperature": "26.2 °C", "SYPRO Orange fluorescence [a.u.]": 8930}
{"target": "DCAF1", "temperature": "78.41 °C", "SYPRO Orange fluorescence [a.u.]": 46800}
{"data": "Sample 2", "Structure (SMILES)": "CCN1/C(=C/C=C2\\CCCC(/C=C/C3=[N+](CC)c4ccccc4C3(C)C)=C2NCCCCCCCCN2CCC(Nc3nc4ccccc4n3Cc3ccc(F)cc3)CC2)C(C)(C)c2ccccc21", "cell line": "U-87 MG", "concentration": "concentration not given", "baseline": "DMSO"}
{"measured": "CD24 mRNA", "log2 fold change": -3.57}
{"measured": "FAXDC2 mRNA", "log2 fold change": -2}
{"measured": "H6PD", "log2 fold change": -0.945}
{"measured": "FSCN1 mRNA", "log2 fold change": -1.4}
{"measured": "PTPRH mRNA", "log2 fold change": 1.99}
{"measured": "C1orf94 mRNA", "log2 fold change": -1.56}
{"measured": "NCAPD3 mRNA", "log2 fold change": -1}
{"measured": "ANLN mRNA", "log2 fold change": -2.36}
{"measured": "MEX3C mRNA", "log2 fold change": 0.81}
{"measured": "LURAP1L mRNA", "log2 fold change": 1.01}
{"measured": "PTPRS mRNA", "log2 fold change": -0.812}
{"measured": "SLC38A1 mRNA", "log2 fold change": 1.63}
{"measured": "TMEM41B mRNA", "log2 fold change": 1.23}
{"measured": "C12orf29 mRNA", "log2 fold change": 0.926}
{"measured": "CDC25C mRNA", "log2 fold change": -1.98}
{"measured": "PRDM1 mRNA", "log2 fold change": 1.37}
{"data": "Sample 3", "SMILES": "CCN(CC)CC(=O)N1CCN(c2nc(NCc3nc4cc(Cl)c(Cl)cc4[nH]3)c3ncn(CC)c3n2)CC1", "observed": "enzyme activity", "action": "inhibitor", "method": "ADP detection", "CDK13": "Cyclin-dependent kinase 13 (CDK13, Homo sapiens, UniProt Q14004)", "CDK2": "Cyclin-dependent kinase 2 (CDK2, Homo sapiens, UniProt P24941)", "UniProt Q14004, sequence (whole entry, looked up)": "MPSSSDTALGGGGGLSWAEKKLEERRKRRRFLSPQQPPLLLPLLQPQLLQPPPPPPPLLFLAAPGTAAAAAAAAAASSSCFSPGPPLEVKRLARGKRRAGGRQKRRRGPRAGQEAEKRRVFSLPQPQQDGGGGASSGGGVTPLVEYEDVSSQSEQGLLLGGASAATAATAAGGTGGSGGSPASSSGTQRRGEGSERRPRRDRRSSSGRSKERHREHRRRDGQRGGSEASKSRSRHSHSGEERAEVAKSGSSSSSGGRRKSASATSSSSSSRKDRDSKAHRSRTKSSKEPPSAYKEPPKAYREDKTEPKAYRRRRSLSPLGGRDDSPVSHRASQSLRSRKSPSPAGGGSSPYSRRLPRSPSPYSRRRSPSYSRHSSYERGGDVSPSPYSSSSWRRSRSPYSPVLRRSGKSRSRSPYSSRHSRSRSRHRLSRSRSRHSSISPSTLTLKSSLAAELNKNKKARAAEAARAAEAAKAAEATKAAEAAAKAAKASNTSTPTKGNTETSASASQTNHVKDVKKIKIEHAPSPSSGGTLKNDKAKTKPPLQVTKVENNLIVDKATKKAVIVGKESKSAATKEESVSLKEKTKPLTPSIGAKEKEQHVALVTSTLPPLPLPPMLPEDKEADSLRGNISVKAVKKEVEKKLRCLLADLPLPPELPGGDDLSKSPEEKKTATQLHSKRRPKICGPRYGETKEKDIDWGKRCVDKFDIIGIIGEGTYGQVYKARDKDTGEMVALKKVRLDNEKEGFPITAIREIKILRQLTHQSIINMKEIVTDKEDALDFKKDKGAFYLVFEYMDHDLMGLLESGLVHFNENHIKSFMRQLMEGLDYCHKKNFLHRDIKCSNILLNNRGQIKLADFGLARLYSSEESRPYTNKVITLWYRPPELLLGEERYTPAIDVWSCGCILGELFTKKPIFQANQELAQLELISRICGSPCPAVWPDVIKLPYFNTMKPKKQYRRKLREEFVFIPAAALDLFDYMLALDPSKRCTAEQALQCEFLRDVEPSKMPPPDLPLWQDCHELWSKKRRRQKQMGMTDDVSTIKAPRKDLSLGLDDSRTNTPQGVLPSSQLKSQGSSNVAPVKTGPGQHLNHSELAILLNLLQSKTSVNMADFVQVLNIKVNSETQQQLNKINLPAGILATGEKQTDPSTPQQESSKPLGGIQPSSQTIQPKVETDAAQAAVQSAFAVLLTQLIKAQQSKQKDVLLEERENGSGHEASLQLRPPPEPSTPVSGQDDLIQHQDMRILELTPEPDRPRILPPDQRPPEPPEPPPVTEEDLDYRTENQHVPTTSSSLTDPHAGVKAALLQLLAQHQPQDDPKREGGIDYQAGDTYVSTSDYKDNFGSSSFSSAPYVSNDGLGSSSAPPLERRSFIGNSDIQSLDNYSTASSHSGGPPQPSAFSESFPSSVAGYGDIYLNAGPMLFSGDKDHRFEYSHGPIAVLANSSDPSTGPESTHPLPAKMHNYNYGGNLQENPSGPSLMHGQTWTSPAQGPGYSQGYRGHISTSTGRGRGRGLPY"}
{"target": "CDK13", "concentration": "1.111 µM", "inhibition": "60.4%"}
{"target": "CDK13", "concentration": "0.3704 µM", "inhibition": "44.1%"}
{"target": "CDK13", "concentration": "0.1235 µM", "inhibition": "17.9%"}
{"target": "CDK2", "concentration": "41.2 nM", "inhibition": "-7%"}
{"target": "CDK2", "concentration": "0.1235 µM", "inhibition": "1.1%"}
{"target": "CDK7 (Homo sapiens, UniProt P50613)", "concentration": "0.3704 µM", "inhibition": "38.3%"}
{"target": "CDK9 (Homo sapiens, UniProt P50750)", "concentration": "1.111 µM", "inhibition": "31%"}
{"target": "CDK13", "concentration": "1.5 nM", "inhibition": "-1.5%"}
{"data": "Sample 4", "target": "Sodium-dependent neutral amino acid transporter B(0)AT1 (SLC6A19, Homo sapiens, UniProt Q695T7)", "action": "inhibitor", "method": "L-[14C]leucine uptake", "cell line": "CHO-BC cells", "setting": "first repeat"}
{"Compound": "CC(C)NC(=O)COc1ccc(Cl)cc1", "IC50 [µM]": 17.7}
{"Compound": "CC(C)NC(=O)COc1ccc(I)cc1", "IC50 [µM]": 3}
{"Compound": "CCCNC(=O)COc1cc(C)c(Cl)c(C)c1", "IC50 [µM]": 1.8}
{"Compound": "CC(C)NC(=O)COc1ccc(Br)cc1", "IC50 [µM]": 8.53}
{"data": "Other studies, line by line", "MPO": "Myeloperoxidase (MPO, Homo sapiens, UniProt P05164)", "UniProt P05164, sequence (whole entry, looked up)": "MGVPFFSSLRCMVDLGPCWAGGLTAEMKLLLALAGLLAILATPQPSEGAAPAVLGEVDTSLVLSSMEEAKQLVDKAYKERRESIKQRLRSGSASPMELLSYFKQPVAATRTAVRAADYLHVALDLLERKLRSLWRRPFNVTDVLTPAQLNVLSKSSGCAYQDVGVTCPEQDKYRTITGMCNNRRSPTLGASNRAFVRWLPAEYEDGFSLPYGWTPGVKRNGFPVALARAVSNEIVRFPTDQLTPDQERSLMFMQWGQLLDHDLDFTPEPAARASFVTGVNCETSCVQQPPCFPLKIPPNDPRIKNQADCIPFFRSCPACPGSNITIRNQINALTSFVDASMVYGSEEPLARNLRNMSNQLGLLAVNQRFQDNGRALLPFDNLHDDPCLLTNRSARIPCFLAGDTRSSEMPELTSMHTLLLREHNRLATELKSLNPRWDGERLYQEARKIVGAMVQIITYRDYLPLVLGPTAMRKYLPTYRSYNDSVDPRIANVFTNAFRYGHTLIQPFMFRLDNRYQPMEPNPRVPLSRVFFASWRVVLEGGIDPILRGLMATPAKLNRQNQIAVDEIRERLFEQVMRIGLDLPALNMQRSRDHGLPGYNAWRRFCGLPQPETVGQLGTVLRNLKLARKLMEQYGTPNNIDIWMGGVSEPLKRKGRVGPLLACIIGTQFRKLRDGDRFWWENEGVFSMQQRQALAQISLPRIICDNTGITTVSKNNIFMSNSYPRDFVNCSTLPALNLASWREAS"}
{"SMILES": "Cc1ccc(O)c(C)c1-c1cnc2[nH]c(-c3cnc(N4CCC5(CC4)CC(N4CCN(c6cc7c(cc6F)c(N6CCC(=O)NC6=O)nn7C)CC4)CO5)nc3)cc2c1C#N (racemic)", "tested on": "PKMYT1 (Homo sapiens, UniProt Q99640)", "assay": "binding, HTRF", "conditions": "333.33 nM", "quantity": "inhibition", "value": "99.2%"}
{"SMILES": "Cc1ncsc1-c1ccc(C(CO)NC(=O)C2CC(O)CN2C(=O)C(NC(=O)c2ccc(COc3c(-c4c(C)c(F)cc5[nH]ncc45)c(C4CC4)cc4c(N5CC6CC5CN6)nc(OC5CCOCC5)nc34)cc2)C(C)C)cc1 (stereo not drawn)", "tested on": "ASPC1", "assay": "cell growth or viability, ATP luminescence", "conditions": "300 pM, 6 days", "quantity": "viability", "value": "93.6% and 96.6% and 94.7% and 87.7% and 81.4% and 83.3%"}
{"SMILES": "CC[C@@]1(c2cccc(C(F)(F)F)c2)C2=C(Nc3n[nH]cc31)[C@H](F)C(C)(C)CC2=O (single isomer, unassigned)", "test system": "mouse plasma", "conditions": "4 h", "quantity": "fu", "value": 0.0184}
{"SMILES": "Cc1ccc(O)c(C)c1-c1cnc2[nH]c(-c3cnc(N4CC5(CC(CN6CCN(c7ccc(NC8CCC(=O)NC8=O)cc7F)CC6)C5)C4)nc3)cc2c1C#N (stereo not drawn)", "tested on": "HCC1569", "assay": "CDK1 Thr14 phosphorylation, in-cell western", "conditions": "333.33 nM", "scale": "lower = stronger inhibition", "quantity": "phospho-CDK1 (Thr14) level", "value": "115 a.u. and 123 a.u."}
{"SMILES": "O=C(O)C1Oc2cc(F)ccc2N(Cc2ccccc2)C1=O (stereo not drawn)", "tested on": "Arabidopsis thaliana", "assay": "hypocotyl length", "test system": "Col-0, seedlings", "conditions": "50 µg/mL", "quantity": "inhibition", "value": "24.2%"}
{"SMILES": "NC/C(=C\\F)COc1cc(Cn2c(=S)[nH]c(=O)c3[nH]ccc32)ccc1Cl", "tested on": "MPO", "assay": "enzyme activity", "conditions": "0.0015 µM", "quantity": "inhibition", "value": "18.4% and 0.678%"}
{"SMILES": "CN(C)C/C=C/C(=O)NCCCN1c2ccccc2CCc2ccc(Cl)cc21", "tested on": "E3 ubiquitin-protein ligase NEDD4, HECT domain (Homo sapiens, UniProt P46934)", "assay": "enzyme activity, inhibitor, Ub-TR-FRET", "test system": "HECT domain", "conditions": "0.005081 µM", "scale": "higher = more chain formation", "quantity": "ubiquitin chain formation AUC", "value": "129000 a.u. and 132000 a.u. and 130000 a.u."}
{"SMILES": "NC/C(=C\\F)COc1cccc(Cn2c(=S)[nH]c(=O)c3[nH]cnc32)c1", "test system": "rat hepatocytes", "conditions": "60 min", "quantity": "remaining compound", "value": "103% and 88.6% and 81.9% and 88.1%"}
{"SMILES": "COCCOCCOC(=O)[C@H](CCC(=O)C=[N+]=[N-])NC(=O)[C@H](Cc1c[nH]c2ccccc12)NC(C)=O", "test system": "CES1-/- mouse GI tissue homogenate", "conditions": "concentration not given, 60 min", "quantity": "DON release", "value": "12%"}
{"SMILES": "Cc1ncc(-c2cc3c(C#N)c(-c4c(C)ccc(O)c4C)cnc3[nH]2)cn1", "test system": "male Sprague-Dawley rat, plasma", "conditions": "intravenous", "quantity": "clearance", "value": "63.6 mL/min/kg"}
{"SMILES": "Cc1ncsc1-c1ccc(C(CO)NC(=O)C2CC(O)CN2C(=O)C(C(C)C)n2cc(-c3ccc(COc4c(-c5c(C)c(F)cc6[nH]ncc56)c(C5CC5)cc5c(N6CC7CC6CN7)nc(OC6CCOCC6)nc45)cc3)nn2)cc1 (stereo not drawn)", "tested on": "GP2d", "assay": "cell growth or viability, ATP luminescence", "conditions": "1 µM, 6 days", "quantity": "viability", "value": "28.6% and 30% and 27.5% and 35%"}
{"SMILES": "O=C(O)C1(O)Oc2cc(Br)ccc2N(Cc2ccccc2)C1=O (stereo not drawn)", "tested on": "Arabidopsis thaliana", "assay": "hypocotyl length", "test system": "Col-0", "conditions": "50.0 µg/mL, 7 days, seed germination, dark", "quantity": "inhibition", "value": "35.3%"}
{"SMILES": "NCc1ccc(Cn2cc(Cc3cc(N)nc4[nH]nnc34)cn2)cc1", "tested on": "MPO", "assay": "enzyme activity, inhibitor, fluorescence", "conditions": "500 pM", "quantity": "inhibition", "value": "-0.29%"}
{"SMILES": "COCC1CC2C(CCC3C(O)CCC32)c2ccc(O)cc21 (stereo not drawn)", "tested on": "A549", "assay": "DNA microarray, measured: KIF20A", "conditions": "25 µM", "scale": "baseline: untreated cells", "quantity": "log2 fold change", "value": "0.0344 and -0.0971 and 0.0311 and -0.0113 and -0.0304"}
{"SMILES": "Cc1ccc(O)c(C)c1-c1cnc2[nH]c(-c3cnc(N4CCC5(CC4)CC(N4CCN(c6ccc(NC7CCC(=O)NC7=O)cc6F)CC4)CO5)nc3)cc2c1C#N (stereo not drawn)", "tested on": "HCC1569", "assay": "CDK1 Thr14 phosphorylation, in-cell western", "conditions": "1000.00 nM", "scale": "lower = stronger inhibition", "quantity": "phospho-CDK1 (Thr14) level", "value": "118 a.u."}
{"SMILES": "NC/C(=C\\F)COc1ccc(Cl)c(-c2cc(=O)[nH]c(=S)n2CC(N)=O)c1", "tested on": "MPO", "assay": "enzyme activity, inhibitor, fluorescence", "conditions": "61.7 nM", "quantity": "inhibition", "value": "30.1%"}
{"SMILES": "CC(C)NC(=O)N1CCC(NC2=Nc3cc(F)ccc3N(CC(F)F)c3ccc(Cl)cc32)C1 (stereo in doubt)", "tested on": "colorectal tumour organoids", "conditions": "0.1 µM", "scale": "baseline: DMSO", "quantity": "viability", "value": "108%"}
{"SMILES": "Cc1nc(C)c(C=[N+]([O-])C(C)(C)C)nc1C", "assay": "footprint test", "test system": "MPTP-induced Parkinson's disease mouse model", "conditions": "30 mg/kg", "quantity": "stride length", "value": "6.28 cm and 6.84 cm and 5.52 cm and 6.65 cm and 5.43 cm and 6.14 cm and 6.29 cm and 6.54 cm"}
